{"data": "Measurements of several laboratories", "note": "A part holds a random share of what one study measured. Several values in a cell are separate wells, animals, samples, runs or records.", "sequence of UniProt Q9Y2H1 (whole entry, looked up)": "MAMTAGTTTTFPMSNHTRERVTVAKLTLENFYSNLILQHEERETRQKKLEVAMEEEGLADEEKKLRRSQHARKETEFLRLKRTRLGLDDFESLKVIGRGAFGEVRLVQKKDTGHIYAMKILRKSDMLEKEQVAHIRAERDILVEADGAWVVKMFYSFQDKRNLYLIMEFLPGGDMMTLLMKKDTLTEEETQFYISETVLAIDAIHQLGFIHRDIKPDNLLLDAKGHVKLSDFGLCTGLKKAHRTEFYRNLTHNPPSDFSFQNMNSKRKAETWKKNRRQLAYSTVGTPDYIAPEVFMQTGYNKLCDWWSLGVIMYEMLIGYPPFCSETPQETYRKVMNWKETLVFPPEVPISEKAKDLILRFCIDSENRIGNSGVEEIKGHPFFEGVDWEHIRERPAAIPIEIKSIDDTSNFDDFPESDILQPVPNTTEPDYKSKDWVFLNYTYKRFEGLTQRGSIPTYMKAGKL", "sequence of UniProt P49674 (whole entry, looked up)": "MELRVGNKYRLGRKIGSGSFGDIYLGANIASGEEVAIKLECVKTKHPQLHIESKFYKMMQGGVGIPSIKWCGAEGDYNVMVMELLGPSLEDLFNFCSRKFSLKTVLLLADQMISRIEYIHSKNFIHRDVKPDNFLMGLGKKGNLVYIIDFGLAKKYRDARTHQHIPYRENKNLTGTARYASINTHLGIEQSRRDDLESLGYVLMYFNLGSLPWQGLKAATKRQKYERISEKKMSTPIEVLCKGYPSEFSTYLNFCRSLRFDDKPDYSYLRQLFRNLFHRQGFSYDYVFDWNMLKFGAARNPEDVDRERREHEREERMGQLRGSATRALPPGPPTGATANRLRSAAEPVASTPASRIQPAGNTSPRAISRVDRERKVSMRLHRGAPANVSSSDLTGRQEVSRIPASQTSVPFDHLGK", "sequence of UniProt O14730 (whole entry, looked up)": "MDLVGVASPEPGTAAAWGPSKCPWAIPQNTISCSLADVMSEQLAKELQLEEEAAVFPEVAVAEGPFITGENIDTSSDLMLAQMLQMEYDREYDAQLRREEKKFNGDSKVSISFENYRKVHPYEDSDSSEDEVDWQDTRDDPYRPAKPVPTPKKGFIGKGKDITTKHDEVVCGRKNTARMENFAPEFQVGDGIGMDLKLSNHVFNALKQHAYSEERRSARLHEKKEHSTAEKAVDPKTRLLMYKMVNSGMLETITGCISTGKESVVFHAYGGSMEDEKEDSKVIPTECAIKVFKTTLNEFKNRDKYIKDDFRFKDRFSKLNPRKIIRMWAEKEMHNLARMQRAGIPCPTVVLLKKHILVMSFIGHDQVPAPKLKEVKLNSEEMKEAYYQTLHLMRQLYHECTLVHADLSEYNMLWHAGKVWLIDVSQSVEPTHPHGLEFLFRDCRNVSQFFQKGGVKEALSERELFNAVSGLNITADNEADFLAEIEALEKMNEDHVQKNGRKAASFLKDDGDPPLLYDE", "sequence of UniProt Q96GD4 (whole entry, looked up)": "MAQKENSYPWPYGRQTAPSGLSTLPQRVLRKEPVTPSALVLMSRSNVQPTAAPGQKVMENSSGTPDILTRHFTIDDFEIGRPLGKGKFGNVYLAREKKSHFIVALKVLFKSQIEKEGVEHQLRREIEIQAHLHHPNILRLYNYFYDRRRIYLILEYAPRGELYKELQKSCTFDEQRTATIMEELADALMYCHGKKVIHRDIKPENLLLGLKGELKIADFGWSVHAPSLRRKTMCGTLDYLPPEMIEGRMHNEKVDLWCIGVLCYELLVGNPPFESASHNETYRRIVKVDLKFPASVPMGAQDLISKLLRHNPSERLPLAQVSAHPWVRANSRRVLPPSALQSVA", "sequence of UniProt Q16832 (whole entry, looked up)": "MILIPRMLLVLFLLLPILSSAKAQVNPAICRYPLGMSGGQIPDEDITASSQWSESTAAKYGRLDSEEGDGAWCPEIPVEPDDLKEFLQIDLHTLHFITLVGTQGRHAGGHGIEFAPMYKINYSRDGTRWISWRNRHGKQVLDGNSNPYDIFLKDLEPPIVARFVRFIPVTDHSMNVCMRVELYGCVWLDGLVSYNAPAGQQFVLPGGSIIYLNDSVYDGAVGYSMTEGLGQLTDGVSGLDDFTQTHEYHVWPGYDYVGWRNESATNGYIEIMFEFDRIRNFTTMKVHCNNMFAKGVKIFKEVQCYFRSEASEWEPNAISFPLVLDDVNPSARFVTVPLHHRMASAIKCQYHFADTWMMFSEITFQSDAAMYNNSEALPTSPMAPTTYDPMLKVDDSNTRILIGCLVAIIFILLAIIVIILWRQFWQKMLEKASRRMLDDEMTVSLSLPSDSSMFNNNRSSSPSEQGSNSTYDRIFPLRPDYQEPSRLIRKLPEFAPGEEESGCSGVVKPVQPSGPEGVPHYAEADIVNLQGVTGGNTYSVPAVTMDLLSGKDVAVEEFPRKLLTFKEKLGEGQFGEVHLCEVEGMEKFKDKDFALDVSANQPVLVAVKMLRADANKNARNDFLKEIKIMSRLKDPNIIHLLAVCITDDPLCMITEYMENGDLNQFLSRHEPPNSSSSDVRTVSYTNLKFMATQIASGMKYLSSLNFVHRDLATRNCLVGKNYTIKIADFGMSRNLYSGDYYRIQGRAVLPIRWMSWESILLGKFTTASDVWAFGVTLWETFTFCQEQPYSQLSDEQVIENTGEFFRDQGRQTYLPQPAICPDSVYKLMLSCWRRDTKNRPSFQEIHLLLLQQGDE", "sequence of UniProt Q13554 (whole entry, looked up)": "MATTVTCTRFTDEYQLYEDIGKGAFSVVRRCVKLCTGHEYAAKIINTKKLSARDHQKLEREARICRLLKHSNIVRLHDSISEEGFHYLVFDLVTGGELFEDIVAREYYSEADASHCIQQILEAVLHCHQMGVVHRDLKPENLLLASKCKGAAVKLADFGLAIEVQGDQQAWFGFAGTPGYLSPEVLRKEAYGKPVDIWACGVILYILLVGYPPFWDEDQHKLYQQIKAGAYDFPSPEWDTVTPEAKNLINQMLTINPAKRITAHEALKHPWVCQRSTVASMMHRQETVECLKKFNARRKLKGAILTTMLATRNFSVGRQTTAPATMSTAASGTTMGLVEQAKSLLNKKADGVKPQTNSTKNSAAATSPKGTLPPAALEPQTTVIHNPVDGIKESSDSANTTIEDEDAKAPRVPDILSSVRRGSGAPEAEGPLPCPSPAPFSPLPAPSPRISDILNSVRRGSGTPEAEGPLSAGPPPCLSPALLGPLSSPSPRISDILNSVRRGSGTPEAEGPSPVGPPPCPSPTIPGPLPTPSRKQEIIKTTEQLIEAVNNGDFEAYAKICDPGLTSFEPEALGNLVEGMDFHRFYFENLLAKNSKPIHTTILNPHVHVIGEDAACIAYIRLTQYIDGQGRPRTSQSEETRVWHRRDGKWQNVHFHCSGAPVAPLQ"}
{"data": "Set 1", "cell line": "mouse MPNST tumor cells", "method": "high-content immunofluorescence imaging", "item": "nuclear SOX9", "concentration": "10 µM", "time": "12 h", "notes": "mean of 2 replicates", "reference": "DMSO control", "reading": "higher = more nuclear SOX9"}
{"Structure (SMILES)": "CN1C(C)(C)CCCC1(C)C", "nuclear SOX9 intensity": "82.9 % of DMSO"}
{"Structure (SMILES)": "OC1C(CCl)OC(n2cnc3c(NC4CC5CCC4C5)ncnc32)C1O (stereo not drawn)", "nuclear SOX9 intensity": "94.6 % of DMSO"}
{"Structure (SMILES)": "Cc1ccccc1C(=O)Nc1ccc(C(=O)N2CCCC(O)c3cc(Cl)ccc32)c(C)c1 (stereo not drawn)", "nuclear SOX9 intensity": "93.5 % of DMSO and 91.9 % of DMSO and 90 % of DMSO"}
{"Structure (SMILES)": "COc1ccc(S(=O)(=O)N2C(=O)[C@@](c3ccccc3OC)(N3C[C@H](O)C[C@H]3C(=O)N(C)C)c3cc(Cl)ccc32)c(OC)c1", "nuclear SOX9 intensity": "110 % of DMSO"}
{"Structure (SMILES)": "CC1CCc2nc(N)c(C#N)c(-c3cccnc3)c2C1 (stereo not drawn)", "nuclear SOX9 intensity": "144 % of DMSO"}
{"Structure (SMILES)": "OCCn1cc(-c2ccc3c(c2)CC/C3=N\\O)c(-c2ccncc2)n1", "nuclear SOX9 intensity": "45.7 % of DMSO"}
{"Structure (SMILES)": "COc1ccccc1N1CCN(CC(O)COc2cccc3ccccc23)CC1 (stereo not drawn)", "nuclear SOX9 intensity": "124 % of DMSO and 108 % of DMSO"}
{"Structure (SMILES)": "CCCCCCOc1cc2c(cc1N(C)c1ncc(C(=O)O)cn1)C(C)(C)CCC2(C)C", "nuclear SOX9 intensity": "97.9 % of DMSO"}
{"Structure (SMILES)": "NS(=O)(=O)c1cc2c(cc1Cl)NC(C(Cl)Cl)NS2(=O)=O (stereo not drawn)", "nuclear SOX9 intensity": "96.1 % of DMSO"}
{"Structure (SMILES)": "CCN1CCCC1CNC(=O)c1cc(S(=O)(=O)CC)c(N)cc1OC (stereo not drawn)", "nuclear SOX9 intensity": "102 % of DMSO"}
{"Structure (SMILES)": "Oc1cc2c(cc1O)CN(C(=S)NCCc1ccc(Cl)cc1)CCC2", "nuclear SOX9 intensity": "107 % of DMSO"}
{"Structure (SMILES)": "CN(C)CCc1c[nH]c2ccc(C[C@H]3COC(=O)N3)cc12", "nuclear SOX9 intensity": "87.7 % of DMSO and 102 % of DMSO"}
{"data": "Set 2", "Structure (SMILES)": "C[C@@]1(Cc2ccc(C#N)cc2)C(=O)N(c2cc(Cl)cc(Cl)c2)c2ncc(C(=O)NC3(c4nc(C5CCC5)no4)CC3)n21", "observed": "cell-free assay", "method": "competition with immobilised ligand", "concentration": "1 µM"}
{"target": "Casein kinase I isoform epsilon (CSNK1E, Homo sapiens, UniProt P49674)", "remaining binding [%]": 100}
{"target": "Receptor-type tyrosine-protein kinase FLT3 (FLT3, Homo sapiens, UniProt P36888, ITD)", "remaining binding [%]": 100}
{"target": "Discoidin domain-containing receptor 2 (DDR2, Homo sapiens, UniProt Q16832)", "remaining binding [%]": 100}
{"target": "Serine/threonine-protein kinase 38-like (STK38L, Homo sapiens, UniProt Q9Y2H1)", "remaining binding [%]": 48}
{"target": "Aurora kinase B (AURKB, Homo sapiens, UniProt Q96GD4)", "remaining binding [%]": 100}
{"target": "Epidermal growth factor receptor (EGFR, Homo sapiens, UniProt P00533, L858R/T790M)", "remaining binding [%]": 79}
{"target": "Serine/threonine-protein kinase RIO3 (RIOK3, Homo sapiens, UniProt O14730)", "remaining binding [%]": 100}
{"target": "Tyrosine-protein kinase ABL1, phosphorylated (ABL1, Homo sapiens, UniProt P00519, Y253F)", "remaining binding [%]": 95}
{"target": "Calcium/calmodulin-dependent protein kinase type II subunit beta (CAMK2B, Homo sapiens, UniProt Q13554)", "remaining binding [%]": 90}
{"data": "Set 3", "cell line": "HaCaT", "concentration": "100 µM", "time": "60 h"}
{"Compound": "Cc1nc(C)c(Cl)c(O)c1Cl", "viability [%]": 110}
{"Compound": "Cc1cccc(Nc2ccncc2S(=O)(=O)NC(=O)NC(C)C)c1", "viability [%]": 134}
{"Compound": "Cc1cc2c(cc1S(N)(=O)=O)S(=O)(=O)CCC2", "viability [%]": 148}
{"Compound": "COc1c2occc2cc2ccc(=O)oc12", "viability [%]": 75.9}
{"Compound": "O=C(O)c1ccc(S(=O)(=O)N(Cl)Cl)cc1", "viability [%]": 134}
{"Compound": "COc1ccc(NS(=O)(=O)c2ccc(N)cc2)nn1", "viability [%]": 84}
{"data": "Set 4", "target": "Tyrosine-protein kinase Fgr (FGR, Homo sapiens, UniProt P09769)", "observed": "enzyme activity", "action": "inhibitor", "concentration": "0.5 µM", "reference": "control", "sequence of UniProt P09769 (whole entry, looked up)": "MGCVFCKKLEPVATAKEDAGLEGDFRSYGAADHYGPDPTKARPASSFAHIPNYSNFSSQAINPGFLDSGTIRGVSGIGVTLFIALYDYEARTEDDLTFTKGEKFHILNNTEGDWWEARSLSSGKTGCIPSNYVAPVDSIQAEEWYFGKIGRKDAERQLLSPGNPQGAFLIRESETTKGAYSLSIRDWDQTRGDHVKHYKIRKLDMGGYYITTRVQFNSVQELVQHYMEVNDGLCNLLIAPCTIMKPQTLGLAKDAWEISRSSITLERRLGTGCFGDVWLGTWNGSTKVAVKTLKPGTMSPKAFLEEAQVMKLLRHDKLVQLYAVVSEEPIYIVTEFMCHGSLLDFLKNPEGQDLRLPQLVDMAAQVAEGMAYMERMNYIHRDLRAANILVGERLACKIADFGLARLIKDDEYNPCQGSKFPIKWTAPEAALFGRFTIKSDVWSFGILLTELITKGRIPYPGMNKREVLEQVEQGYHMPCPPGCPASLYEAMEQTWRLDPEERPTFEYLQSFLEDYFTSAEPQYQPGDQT"}
{"SMILES": "O=C1c2ccccc2-c2nc3nnnn3nc21", "remaining activity": "79.8%"}
{"SMILES": "COc1cc2c(N3CCN(C(=O)Nc4ccc(OC(C)C)cc4)CC3)ncnc2cc1OCCCN1CCCCC1", "remaining activity": "94%"}
{"SMILES": "c1cc(-c2cnn3cc(-c4ccc(OCCN5CCCCC5)cc4)cnc23)ccn1", "remaining activity": "27.5%"}
{"SMILES": "FC(F)(F)c1ccc(/C=C/c2nc(COc3ccc(CCCCn4ccnn4)cc3)co2)cc1", "remaining activity": "92.6%"}
{"SMILES": "NC(=O)c1ccc(-c2nc(-c3ccc4c(c3)OCCO4)c(-c3ccccn3)[nH]2)cc1", "remaining activity": "96.7%"}
{"SMILES": "O=C(O)/C=C/c1cc(Br)c(Br)c(Br)c1Br", "remaining activity": "98.4%"}
{"SMILES": "CC(C)n1cnc2c(Nc3cccc(Cl)c3)nc(NCCO)nc21", "remaining activity": "61.5%"}
{"SMILES": "COc1cc2c(Nc3ccc(Br)cc3F)ncnc2cc1OCC1CCN(C)CC1", "remaining activity": "30%"}
{"SMILES": "CC(C)(C)c1nc2c3cc[nH]c(=O)c3c3cc(F)ccc3c2[nH]1", "remaining activity": "76.9%"}
{"SMILES": "Clc1ccc(Nc2nnc(Cc3ccncc3)c3ccccc23)cc1", "remaining activity": "96.8%"}
{"SMILES": "O=C1NC(=O)/C(=C/c2ccc3c(c2)OC(F)(F)O3)S1", "remaining activity": "95.8%"}
{"SMILES": "Nc1nc(Nc2ccc(S(N)(=O)=O)cc2)nn1C(=S)Nc1c(F)cccc1F", "remaining activity": "17.1%"}
{"SMILES": "CC(C)N(CCC(=O)c1ccc2ccccc2c1)Cc1ccccc1", "remaining activity": "94.2%"}
{"SMILES": "N#C/C(=C(/N)SC1C=CC=CC1)c1cccc(C(O)c2ccncc2)c1 (stereo not drawn)", "remaining activity": "96.2%"}
{"SMILES": "O=c1c(-c2ccc(F)cc2)c(-c2ccncc2)[nH]n1-c1ccc(Cl)cc1", "remaining activity": "87.4%"}
{"SMILES": "C[C@@H](N)[C@H]1CC[C@H](C(=O)Nc2ccncc2)CC1", "remaining activity": "88.8%"}
{"SMILES": "CCCCc1c(-c2ccc(O)cc2)[nH]c2nccnc12", "remaining activity": "63%"}
{"SMILES": "CCN(CC)CCCCN1c2ccccc2Oc2ccc(Cl)cc21", "remaining activity": "101%"}
{"SMILES": "CNc1cc2c(Nc3cccc(Br)c3)ncnc2cn1", "remaining activity": "88.3%"}
{"SMILES": "NC(=O)c1cccc(-c2cc(Nc3ccc(OC(F)(F)F)cc3)ncn2)c1", "remaining activity": "96.8%"}
{"SMILES": "O=C(c1ccccc1)c1ccc(N2CCOCC2)cc1O", "remaining activity": "104%"}
{"note": "A few entries again (set 4):"}
{"SMILES": "C[C@@H](N)[C@H]1CC[C@H](C(=O)Nc2ccncc2)CC1", "remaining activity": "88.8%"}
{"SMILES": "CCCCc1c(-c2ccc(O)cc2)[nH]c2nccnc12", "remaining activity": "63%"}
{"SMILES": "CCN(CC)CCCCN1c2ccccc2Oc2ccc(Cl)cc21", "remaining activity": "101%"}
{"SMILES": "CNc1cc2c(Nc3cccc(Br)c3)ncnc2cn1", "remaining activity": "88.3%"}
